Assay results gathered from unrelated publications.
Numbered parts are unrelated; each lists some results of a single study. Values joined by “and” are separate records of one study, mostly repeats; a detail may differ. Positions count from the first letter of the parent shown.
Sequence of UniProt P53778 (whole entry, looked up): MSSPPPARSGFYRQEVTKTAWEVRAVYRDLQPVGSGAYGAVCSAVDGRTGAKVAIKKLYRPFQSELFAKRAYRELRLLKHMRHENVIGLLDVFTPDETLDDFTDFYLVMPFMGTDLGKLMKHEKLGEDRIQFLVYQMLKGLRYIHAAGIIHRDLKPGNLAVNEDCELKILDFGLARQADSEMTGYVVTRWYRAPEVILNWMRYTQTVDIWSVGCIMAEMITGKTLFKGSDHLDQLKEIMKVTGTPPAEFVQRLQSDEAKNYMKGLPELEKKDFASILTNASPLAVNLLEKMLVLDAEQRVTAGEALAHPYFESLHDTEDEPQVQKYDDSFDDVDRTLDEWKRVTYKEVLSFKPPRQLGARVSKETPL
Sequence of UniProt P57058 (whole entry, looked up): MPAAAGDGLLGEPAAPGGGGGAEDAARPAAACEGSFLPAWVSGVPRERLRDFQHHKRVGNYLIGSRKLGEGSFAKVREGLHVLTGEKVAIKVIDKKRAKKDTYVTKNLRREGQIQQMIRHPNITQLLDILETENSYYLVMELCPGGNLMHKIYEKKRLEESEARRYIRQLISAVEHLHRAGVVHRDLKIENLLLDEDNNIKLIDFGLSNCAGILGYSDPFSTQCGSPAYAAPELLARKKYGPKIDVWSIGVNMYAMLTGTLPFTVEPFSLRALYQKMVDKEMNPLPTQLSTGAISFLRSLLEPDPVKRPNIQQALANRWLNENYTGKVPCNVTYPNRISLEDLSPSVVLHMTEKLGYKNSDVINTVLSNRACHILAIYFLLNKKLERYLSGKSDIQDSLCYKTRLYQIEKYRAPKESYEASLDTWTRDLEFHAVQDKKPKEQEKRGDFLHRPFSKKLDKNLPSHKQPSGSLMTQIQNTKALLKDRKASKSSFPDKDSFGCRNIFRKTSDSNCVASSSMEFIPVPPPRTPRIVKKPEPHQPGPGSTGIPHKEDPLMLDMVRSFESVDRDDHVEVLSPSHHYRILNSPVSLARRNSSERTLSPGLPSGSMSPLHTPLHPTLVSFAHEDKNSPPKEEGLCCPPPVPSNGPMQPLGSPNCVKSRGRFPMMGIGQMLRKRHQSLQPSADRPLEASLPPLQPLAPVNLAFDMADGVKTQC
Sequence of UniProt Q6PHR2 (whole entry, looked up): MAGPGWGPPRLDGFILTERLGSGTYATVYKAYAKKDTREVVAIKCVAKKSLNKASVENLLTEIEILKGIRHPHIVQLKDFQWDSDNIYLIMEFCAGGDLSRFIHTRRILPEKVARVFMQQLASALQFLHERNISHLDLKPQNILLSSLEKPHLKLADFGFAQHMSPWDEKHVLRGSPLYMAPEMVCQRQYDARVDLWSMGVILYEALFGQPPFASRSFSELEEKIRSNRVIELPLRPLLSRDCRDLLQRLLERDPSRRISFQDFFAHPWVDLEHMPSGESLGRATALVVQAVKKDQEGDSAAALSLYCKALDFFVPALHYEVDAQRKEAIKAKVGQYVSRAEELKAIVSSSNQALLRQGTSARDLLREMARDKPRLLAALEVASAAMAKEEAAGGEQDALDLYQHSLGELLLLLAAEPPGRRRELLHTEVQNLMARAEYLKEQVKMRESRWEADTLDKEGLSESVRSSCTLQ
Sequence of UniProt Q9Y2K2 (whole entry, looked up): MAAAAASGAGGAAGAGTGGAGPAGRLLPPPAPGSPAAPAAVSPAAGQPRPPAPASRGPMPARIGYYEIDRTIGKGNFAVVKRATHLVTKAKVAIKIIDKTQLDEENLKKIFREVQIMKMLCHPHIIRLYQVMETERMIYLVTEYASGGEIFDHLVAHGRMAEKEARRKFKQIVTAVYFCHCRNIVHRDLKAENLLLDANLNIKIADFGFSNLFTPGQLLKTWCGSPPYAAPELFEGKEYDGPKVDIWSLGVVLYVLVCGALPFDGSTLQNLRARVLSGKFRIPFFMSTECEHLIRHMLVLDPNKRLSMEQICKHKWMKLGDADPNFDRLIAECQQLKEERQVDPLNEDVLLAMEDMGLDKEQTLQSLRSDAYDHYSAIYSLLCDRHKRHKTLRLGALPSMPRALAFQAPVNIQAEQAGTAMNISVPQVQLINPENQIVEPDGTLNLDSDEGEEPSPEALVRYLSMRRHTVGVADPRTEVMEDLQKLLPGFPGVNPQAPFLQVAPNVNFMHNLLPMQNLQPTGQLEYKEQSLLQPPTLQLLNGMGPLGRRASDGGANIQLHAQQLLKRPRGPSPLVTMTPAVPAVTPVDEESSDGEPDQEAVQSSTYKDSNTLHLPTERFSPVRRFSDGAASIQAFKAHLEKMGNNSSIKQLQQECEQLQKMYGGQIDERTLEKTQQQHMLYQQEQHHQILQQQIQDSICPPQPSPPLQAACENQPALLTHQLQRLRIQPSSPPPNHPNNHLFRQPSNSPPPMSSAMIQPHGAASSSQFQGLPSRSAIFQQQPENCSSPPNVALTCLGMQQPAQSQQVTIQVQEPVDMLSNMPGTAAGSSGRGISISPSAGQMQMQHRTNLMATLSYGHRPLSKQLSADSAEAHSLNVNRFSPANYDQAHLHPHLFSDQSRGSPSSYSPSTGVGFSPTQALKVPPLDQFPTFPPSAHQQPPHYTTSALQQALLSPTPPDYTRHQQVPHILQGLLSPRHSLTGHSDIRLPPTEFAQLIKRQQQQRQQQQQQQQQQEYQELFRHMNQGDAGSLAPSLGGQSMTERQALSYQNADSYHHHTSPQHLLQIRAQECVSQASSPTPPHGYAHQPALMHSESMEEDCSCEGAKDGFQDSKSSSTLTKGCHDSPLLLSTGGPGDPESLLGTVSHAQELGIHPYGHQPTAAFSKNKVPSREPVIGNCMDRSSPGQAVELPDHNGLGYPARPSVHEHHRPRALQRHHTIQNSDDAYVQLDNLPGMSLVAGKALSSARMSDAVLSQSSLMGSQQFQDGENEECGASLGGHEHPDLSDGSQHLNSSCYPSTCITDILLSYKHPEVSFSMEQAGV
Sequence of UniProt P78368 (whole entry, looked up): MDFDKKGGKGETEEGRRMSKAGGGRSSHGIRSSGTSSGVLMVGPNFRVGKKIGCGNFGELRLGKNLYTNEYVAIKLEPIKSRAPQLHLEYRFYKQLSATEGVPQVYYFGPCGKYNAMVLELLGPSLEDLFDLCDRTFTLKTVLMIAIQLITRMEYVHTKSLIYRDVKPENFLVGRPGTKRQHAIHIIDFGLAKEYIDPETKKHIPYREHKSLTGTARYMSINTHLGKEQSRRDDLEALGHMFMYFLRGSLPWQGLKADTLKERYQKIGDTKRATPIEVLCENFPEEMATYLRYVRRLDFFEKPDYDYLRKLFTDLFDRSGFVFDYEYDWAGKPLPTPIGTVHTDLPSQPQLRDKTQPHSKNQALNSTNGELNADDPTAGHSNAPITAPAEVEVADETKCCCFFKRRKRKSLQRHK
Sequence of UniProt P29376 (whole entry, looked up): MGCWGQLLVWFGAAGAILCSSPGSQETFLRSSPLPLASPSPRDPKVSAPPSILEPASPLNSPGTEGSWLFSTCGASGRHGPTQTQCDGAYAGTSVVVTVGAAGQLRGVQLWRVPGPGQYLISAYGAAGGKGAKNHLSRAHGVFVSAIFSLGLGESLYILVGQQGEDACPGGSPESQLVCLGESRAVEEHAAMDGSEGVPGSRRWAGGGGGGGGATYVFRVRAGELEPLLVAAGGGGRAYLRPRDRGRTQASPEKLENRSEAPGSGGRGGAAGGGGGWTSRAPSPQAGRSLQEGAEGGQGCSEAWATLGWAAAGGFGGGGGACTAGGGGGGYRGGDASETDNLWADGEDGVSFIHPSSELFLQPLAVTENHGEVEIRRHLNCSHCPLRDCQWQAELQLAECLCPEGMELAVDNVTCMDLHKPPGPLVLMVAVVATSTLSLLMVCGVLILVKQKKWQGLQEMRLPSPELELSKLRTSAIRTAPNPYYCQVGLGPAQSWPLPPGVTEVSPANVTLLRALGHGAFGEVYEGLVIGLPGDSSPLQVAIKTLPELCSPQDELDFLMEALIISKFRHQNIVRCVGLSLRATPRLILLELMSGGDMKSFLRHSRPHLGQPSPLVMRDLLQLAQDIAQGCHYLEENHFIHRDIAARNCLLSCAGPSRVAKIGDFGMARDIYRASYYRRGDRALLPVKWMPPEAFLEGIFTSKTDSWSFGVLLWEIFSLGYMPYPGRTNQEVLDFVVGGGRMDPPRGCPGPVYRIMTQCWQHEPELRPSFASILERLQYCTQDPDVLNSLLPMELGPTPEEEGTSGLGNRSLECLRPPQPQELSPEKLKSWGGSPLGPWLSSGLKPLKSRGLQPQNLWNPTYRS

Series 1
Structure (SMILES): COc1ccc2c(c1)/C(=C/c1cnc[nH]1)C(=O)N2
Effect on: enzyme activity
Action: inhibitor
Concentration: 0.5 µM
ULK3 (Homo sapiens, UniProt Q6PHR2); relative to: control — remaining activity: 67.9%.
It gave 95.3% for remaining activity (CSNK1G2 (Homo sapiens, UniProt P78368); relative to: control).
TAOK2 (Homo sapiens, UniProt Q9UL54); relative to: control — remaining activity: 81.8%.
It gave 65% for remaining activity (FGFR3 (Homo sapiens, UniProt P22607); relative to: control).
For DYRK1B (Homo sapiens, UniProt Q9Y463); radiometric: remaining activity read 53.1%.

Series 2
Target: CCNA1, cyclin fold, Cln2 fusion (human)
Technique: yeast growth competition, sequencing
Sample: yeast
Notes: weak parent motif
Relative to: not given
Reading: higher = stronger binding
Parent: viral docking peptide; KGVKRKLFAEDSS; partner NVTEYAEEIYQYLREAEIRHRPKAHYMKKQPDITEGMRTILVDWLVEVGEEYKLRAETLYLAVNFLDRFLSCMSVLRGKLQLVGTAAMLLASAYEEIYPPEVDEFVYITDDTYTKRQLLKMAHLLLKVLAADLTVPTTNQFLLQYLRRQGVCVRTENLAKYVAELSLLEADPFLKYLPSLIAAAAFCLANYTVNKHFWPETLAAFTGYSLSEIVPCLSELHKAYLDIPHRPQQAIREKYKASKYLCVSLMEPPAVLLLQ
For `E10F`, “normalised enrichment score” read 0.35.
`V3W` — result for “normalised enrichment score”: -0.0193.
`E10P`: “normalised enrichment score” 0.839.
`V3K` — result for “normalised enrichment score”: 0.346.
Under “normalised enrichment score”, `A9R` is recorded as 1.18.
`S12F`: “normalised enrichment score” 1.11.
`V3I`: “normalised enrichment score” 0.781.
`E10D`: “normalised enrichment score” 1.38.

Series 3
SMILES: CC(C)S(=O)(=O)c1cc2c(Nc3ccc4sc(C5CCCC5)nc4c3)ccnc2cc1OCCO
It gave 90.2% and 94.9% and 98.7% and 93.9% and 94.4% for viability (L929 RIPK3 knockout; 0.781 µM, together with: zVAD).
For L929 RIPK3 knockout; 6.25 µM: viability read 89.8% and 91.6% and 86.7% and 89.3%.
It gave 95.5% and 96.2% and 92.1% and 91.6% for viability (L929; CCK-8; 1.563 µM, together with: zVAD).
For L929; CCK-8; 50 µM, together with: zVAD: viability read 41.5% and 38.7% and 37.5% and 57.9%.
The viability was 52.5% and 53.2% and 55.6% and 51.8% (L929 RIPK3 knockout; 50 µM, together with: zVAD).
It gave 98.9% and 99.2% and 93.3% for viability (L929; CCK-8; 3.125 µM, together with: zVAD).
It gave 87.3% and 95.6% and 87.5% and 97.1% for viability (L929 RIPK3 knockout; 6.25 µM, together with: zVAD).
It gave 14.2% and 13.4% and 14.6% and 8.31% for viability (L929; CCK-8; 100 µM, together with: zVAD).
L929 RIPK3 knockout; 0.781 µM — viability: 95.9% and 93.1% and 98.2% and 99.5%.
L929; CCK-8; 50 µM — viability: 37.6% and 36.6% and 58% and 59.9%.

Series 4
Structure (SMILES): Cn1cncc1[C@@](O)(COc1ccc(C#N)cc1-c1ccc(OC(F)(F)F)cc1)c1ccc(C#N)cc1
Effect on: cell-free assay
Technique: competition with immobilised ligand
Concentration: 1 µM
For HUNK (Homo sapiens, UniProt P57058): remaining binding read 100%.
SIK3 (Homo sapiens, UniProt Q9Y2K2) — remaining binding: 97%.
Tyrosine-protein kinase JAK2, JH1 (JAK2, Homo sapiens, UniProt O60674) — remaining binding: 65%.
MAPK12 (Homo sapiens, UniProt P53778) — remaining binding: 100%.
For LTK (Homo sapiens, UniProt P29376): remaining binding read 100%.

Excerpt of the above (series 3):
It gave 95.5% and 96.2% and 92.1% and 91.6% for viability (L929; CCK-8; 1.563 µM, together with: zVAD).
For L929; CCK-8; 50 µM, together with: zVAD: viability read 41.5% and 38.7% and 37.5% and 57.9%.
The viability was 52.5% and 53.2% and 55.6% and 51.8% (L929 RIPK3 knockout; 50 µM, together with: zVAD).
